Measured values gathered from unrelated publications.
Compare with care: the assays were run in different laboratories. ± gives the spread as reported. ≈ marks a conversion by molar mass, not a printed value.

SMILES | target or system | test | system | conditions | how to read | endpoint | result
O=C(Nc1ccc([C@H]2[C@@H](F)[C@@H](F)C[C@@H](F)[C@H]2F)cc1)C1(N2CCOCC2)CC1 |  | liver microsome stability | dog liver microsomes | 1 µM |  | hepatic clearance | 7.8 mL/min/kg
C[n+]1cc(/C=N/NC(=O)c2ccc3ccc(C(=O)N/N=C/c4cc5ccccc5[n+](C)c4)nc3n2)cc2ccccc21 | 22CTA telomeric G4-DNA antiparallel | FRET melting |  | 1 µM, K10 buffer, DNA 0.2 µM, together with: ds26 10 µM |  | ΔTm | 10.5 ± 0.3 °C
CC(=O)Nc1ccc([C@H]2[C@@H](F)[C@@H](F)C[C@@H](F)[C@H]2F)cc1 |  | hepatocyte stability | cryopreserved rat hepatocytes | 1 µM |  | hepatic clearance | 11 mL/min/kg
CCCC[C@H](NC(=O)CCCCCCCNC(=O)CN1CCN(CC(=O)O)CCN(CC(=O)O)CC1)C(=O)N[C@H]1CC(=O)NCCCC[C@@H](C(N)=O)NC(=O)[C@H](Cc2c[nH]c3ccccc23)NC(=O)[C@H](CCCNC(=N)N)NC(=O)[C@@H](Cc2ccccc2)NC(=O)[C@H](Cc2c[nH]cn2)NC1=O [technetium-99m labelled] |  |  | C57 mouse, blood | intravenous, 0.037 MBq, 0.5 h |  | tissue uptake | 1.28 ± 0.35 %ID/g
CNS(=O)(=O)Nc1nccc(Cc2c(C)c3ccc(Oc4ncccc4F)cc3oc2=O)c1F | KMBC-2 | cell viability, CellTiter-Glo |  | 7 days |  | IC50 | > 1000 nM
CC[n+]1cccc2cc(/C=N/NC(=O)N/N=C/c3ccc4c(ccc[n+]4CC)c3)ccc21 | 22CTA telomeric G4-DNA antiparallel | FRET melting |  | 1 µM, K10 buffer, DNA 0.2 µM, together with: ds26 10 µM |  | ΔTm | 2.4 ± 1.1 °C
c1ccc(CN2CCOCCOCCN(CCCCCCCCN3CCOCCOCCN(CCCCCCCCN4CCOCCOCCN(Cc5ccccc5)CCOCCOCC4)CCOCCOCC3)CCOCCOCC2)cc1 | Klebsiella pneumoniae | checkerboard | ATCC BAA-2146 | half MIC, together with: tetracycline |  | FIC index | 0.53
c1ccc(-c2n[nH]cc2-c2ccnc3ccccc23)nc1 | RTK1 (Candida albicans) | kinase binding, MIB/MS competition | Candida albicans lysate | 1 µM | reference: DMSO | log2 fold change | 0.13
COC1OC(C)C(OC2OC(C)C(O)C(OS(=O)(=O)O)C2OS(=O)(=O)O)C(OS(=O)(=O)O)C1OS(=O)(=O)O (stereo not drawn) |  |  | human plasma | 128 µg/mL |  | activated partial thromboplastin time | 33.7 ± 0.4 s
C=CC(=O)Nc1cccc(Cn2ncc3cnc(Nc4cnn(CCOC)c4)nc32)c1 | human MLCK | KINOMEscan |  | 100 nM | reference: control | binding | 81%
CO[C@@H]1[C@@H](OC(N)=O)[C@@H](O)[C@H](Oc2ccc3c(O)c(NC(=O)c4ccc(O)c(CC=C(C)C)c4)c(=O)oc3c2C)OC1(C)C | HCT-116 BRCA2-/- |  |  | 75 µM, replicate 1 |  | colony count | 23.5
Cc1ncsc1-c1ccc(C(C)NC(=O)C2CC(O)CN2C(=O)C(NC(=O)CCCCCCCCCCN2CCCC(Nc3ncc(Cl)c(Nc4ccccc4S(=O)(=O)C(C)C)n3)C2)C(C)(C)C)cc1 (stereo not drawn) | 22Rv1 | RNA-seq, measured: NIPAL1 mRNA |  | concentration not given | reference: DMSO | log2 fold change | -1.7
COC1OC(C)C(OC2OC(C)C(O)C(OC3OC(C)C(OC4OC(C)C(O)C(OC5OC(C)C(O)C(OS(=O)(=O)O)C5OS(=O)(=O)O)C4OS(=O)(=O)O)C(OS(=O)(=O)O)C3OS(=O)(=O)O)C2OS(=O)(=O)O)C(OS(=O)(=O)O)C1OS(=O)(=O)O (stereo not drawn) |  |  | human plasma | 128 µg/mL |  | activated partial thromboplastin time | 56.6 ± 0.3 s
C=C(NC(=O)c1csc(-c2nc3c(cc2O)-c2nc(cs2)C(=O)NC(C(C)O)C(=O)NC(=C(C)OC)c2nc(cs2)C(=O)NC2c4nc(cs4)C(=O)NC(COC(=O)c4c5c6c(cccc6n4O)COC(=O)C(OC4CC(C)(O)C(N(C)C)C(C)O4)C2OC5)c2nc-3cs2)n1)C(N)=O (stereo not drawn) | Staphylococcus epidermidis | microbial growth |  | clinical isolate |  | MIC90 | 0.0312 µg/mL (≈ 0.0217 µM)
O=C(N/N=C/c1cc[n+](CC2CC2)c2ccccc12)c1ccc2ccc3ccc(C(=O)N/N=C/c4cc[n+](CC5CC5)c5ccccc45)nc3c2n1 | 22CTA telomeric G4-DNA antiparallel | FRET melting |  | 1 µM, K10 buffer, DNA 0.2 µM |  | ΔTm | 22.3 ± 0.7 °C
COC1CN([C@H]2CC[C@H]([C@@]3(C)Oc4c(Cl)cc(C(=O)NCc5c(SC)cc(C)[nH]c5=O)c(C)c4O3)CC2)C1 |  | RNA-seq, measured: mouse GCLC homolog | mouse, HT-1376 xenograft, whole blood | dose not given, PRC2 target gene | reference: vehicle | log2 fold change | 0.257
O=C(N/N=C/c1ccc2c(ccc[n+]2Cc2ccccc2)c1)c1ccc2ccc(C(=O)N/N=C/c3ccc4c(ccc[n+]4Cc4ccccc4)c3)nc2n1 | 22CTA telomeric G4-DNA antiparallel | FRET melting |  | 1 µM, K10 buffer, DNA 0.2 µM |  | ΔTm | 17.3 ± 0.3 °C
Nc1ncc(-c2cc(-c3cnn(CC(F)(F)F)c3)ncc2F)nc1C(=O)NC1CNCC(F)C1 (stereo not drawn) | MLK1 | KINOMEscan |  | 1 µM | reference: DMSO control | remaining binding | 89%
C[n+]1cc(/C=N/NC(=O)c2ccc3ccc4ccc(C(=O)N/N=C/c5cc6ccccc6[n+](C)c5)nc4c3n2)cc2ccccc21 | 22CTA telomeric G4-DNA antiparallel | FRET melting |  | 1 µM, K10 buffer, DNA 0.2 µM |  | ΔTm | 16.3 ± 1.4 °C
COc1cc(O)ccc1CCC(c1ccc(O)cc1)c1cc2c(c(C)c1O)OC(c1ccc(O)cc1)CC2 (mixture of isomers) |  | measured: eicosapentaenoic acid | human whole blood | 30 µM, together with: Escherichia coli |  | amount | 50700 ± 5160 pg/mL blood
O=C(N/N=C/c1cc[n+](Cc2ccccc2)c2ccccc12)c1ccc2ccc3ccc(C(=O)N/N=C/c4cc[n+](Cc5ccccc5)c5ccccc45)nc3c2n1 | 22CTA telomeric G4-DNA antiparallel | FRET melting |  | 1 µM, K10 buffer, DNA 0.2 µM, together with: ds26 10 µM |  | ΔTm | 17.5 ± 0.5 °C
C=CC(=O)N1[C@@H](c2ccc3c(c2)OCO3)c2[nH]c3ccccc3c2C[C@H]1C(=O)N1CCN(C)CC1 | human cyclin E1 wild type-3xFLAG:CDK2 | co-IP with TMT proteomics, measured: TRIM21 |  | concentration not given, P19474 | reference: wild type DMSO | relative co-enrichment | 87%
C[n+]1ccc(/C=N/NC(=O)C(=O)N/N=C/c2cc[n+](C)cc2)cc1 | 22CTA telomeric G4-DNA antiparallel | FRET melting |  | 1 µM, K10 buffer, DNA 0.2 µM, together with: ds26 10 µM |  | ΔTm | 2.1 ± 2.5 °C
COC1OC(C)C(O)C(OC2OC(C)C(O)C(OC3OC(C)C(O)C(OC4OC(C)C(O)C(OS(=O)(=O)O)C4OS(=O)(=O)O)C3OS(=O)(=O)O)C2OS(=O)(=O)O)C1OS(=O)(=O)O (stereo not drawn) |  |  | human plasma | 128 µg/mL |  | activated partial thromboplastin time | 35.1 ± 0.8 s

For quick reference, copied from above:
SMILES | target or system | test | system | conditions | how to read | endpoint | result
COC1OC(C)C(OC2OC(C)C(O)C(OC3OC(C)C(OC4OC(C)C(O)C(OC5OC(C)C(O)C(OS(=O)(=O)O)C5OS(=O)(=O)O)C4OS(=O)(=O)O)C(OS(=O)(=O)O)C3OS(=O)(=O)O)C2OS(=O)(=O)O)C(OS(=O)(=O)O)C1OS(=O)(=O)O (stereo not drawn) |  |  | human plasma | 128 µg/mL |  | activated partial thromboplastin time | 56.6 ± 0.3 s
C=C(NC(=O)c1csc(-c2nc3c(cc2O)-c2nc(cs2)C(=O)NC(C(C)O)C(=O)NC(=C(C)OC)c2nc(cs2)C(=O)NC2c4nc(cs4)C(=O)NC(COC(=O)c4c5c6c(cccc6n4O)COC(=O)C(OC4CC(C)(O)C(N(C)C)C(C)O4)C2OC5)c2nc-3cs2)n1)C(N)=O (stereo not drawn) | Staphylococcus epidermidis | microbial growth |  | clinical isolate |  | MIC90 | 0.0312 µg/mL (≈ 0.0217 µM)
